# Earlier results as cited in several papers.
# Lines come from different studies, so protocols differ. ± marks the error that the study gave.
# atpG/atpA/atpD: atpG/atpA/atpD (Escherichia coli, UniProt P0ABA6+P0ABB0+P0ABB4)
# Sequence of UniProt P0ABB4 (whole entry, looked up): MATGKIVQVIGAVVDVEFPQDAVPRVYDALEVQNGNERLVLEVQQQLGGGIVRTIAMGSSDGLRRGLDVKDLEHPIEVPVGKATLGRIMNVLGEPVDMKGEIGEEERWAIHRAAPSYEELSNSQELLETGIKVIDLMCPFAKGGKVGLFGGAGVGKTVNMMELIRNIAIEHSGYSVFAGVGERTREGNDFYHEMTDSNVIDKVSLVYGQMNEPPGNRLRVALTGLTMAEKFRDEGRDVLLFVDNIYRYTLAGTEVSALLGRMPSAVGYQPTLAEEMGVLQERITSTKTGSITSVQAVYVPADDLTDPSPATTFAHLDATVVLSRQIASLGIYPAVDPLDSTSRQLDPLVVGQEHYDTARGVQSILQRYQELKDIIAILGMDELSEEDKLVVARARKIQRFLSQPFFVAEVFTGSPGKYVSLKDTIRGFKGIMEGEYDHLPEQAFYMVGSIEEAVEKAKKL
# Sequence of UniProt P0ABA6 (whole entry, looked up): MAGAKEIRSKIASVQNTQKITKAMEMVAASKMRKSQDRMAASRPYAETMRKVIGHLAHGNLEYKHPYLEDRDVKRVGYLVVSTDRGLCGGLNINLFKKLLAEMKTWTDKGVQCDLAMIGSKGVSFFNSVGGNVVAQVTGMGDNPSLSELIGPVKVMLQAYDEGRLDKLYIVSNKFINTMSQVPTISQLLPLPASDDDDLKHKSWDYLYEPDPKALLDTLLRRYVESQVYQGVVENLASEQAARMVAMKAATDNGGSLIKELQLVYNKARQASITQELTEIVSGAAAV
# Sequence of UniProt P0ABB0 (whole entry, looked up): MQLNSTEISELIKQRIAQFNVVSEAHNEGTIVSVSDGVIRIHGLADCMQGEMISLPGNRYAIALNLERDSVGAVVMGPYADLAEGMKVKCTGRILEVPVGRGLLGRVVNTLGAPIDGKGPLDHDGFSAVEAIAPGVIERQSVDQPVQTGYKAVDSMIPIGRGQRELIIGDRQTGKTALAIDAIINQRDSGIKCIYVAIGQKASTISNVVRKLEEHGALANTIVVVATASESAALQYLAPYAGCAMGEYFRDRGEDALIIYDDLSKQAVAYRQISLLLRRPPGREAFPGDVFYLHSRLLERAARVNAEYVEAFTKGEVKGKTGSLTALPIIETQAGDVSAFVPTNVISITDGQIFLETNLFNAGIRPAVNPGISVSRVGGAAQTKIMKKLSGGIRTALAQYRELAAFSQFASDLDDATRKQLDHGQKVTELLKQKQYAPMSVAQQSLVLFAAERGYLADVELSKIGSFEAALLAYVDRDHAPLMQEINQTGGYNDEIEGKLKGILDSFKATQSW
# Gastrin-releasing peptide receptor: Gastrin-releasing peptide receptor (Rattus norvegicus, UniProt P52500)
# Sequence of UniProt P52500 (whole entry, looked up): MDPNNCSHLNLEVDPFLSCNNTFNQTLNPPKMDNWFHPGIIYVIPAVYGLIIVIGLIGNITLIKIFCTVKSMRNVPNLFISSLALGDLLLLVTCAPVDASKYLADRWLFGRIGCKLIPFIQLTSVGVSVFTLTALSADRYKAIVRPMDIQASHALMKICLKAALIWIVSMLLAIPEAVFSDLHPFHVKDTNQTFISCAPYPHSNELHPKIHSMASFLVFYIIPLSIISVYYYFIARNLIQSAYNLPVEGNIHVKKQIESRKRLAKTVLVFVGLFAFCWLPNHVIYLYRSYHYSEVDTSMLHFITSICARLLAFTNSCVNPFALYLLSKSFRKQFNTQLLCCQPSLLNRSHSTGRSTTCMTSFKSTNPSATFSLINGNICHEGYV
# Sequence of UniProt P29703 (whole entry, looked up): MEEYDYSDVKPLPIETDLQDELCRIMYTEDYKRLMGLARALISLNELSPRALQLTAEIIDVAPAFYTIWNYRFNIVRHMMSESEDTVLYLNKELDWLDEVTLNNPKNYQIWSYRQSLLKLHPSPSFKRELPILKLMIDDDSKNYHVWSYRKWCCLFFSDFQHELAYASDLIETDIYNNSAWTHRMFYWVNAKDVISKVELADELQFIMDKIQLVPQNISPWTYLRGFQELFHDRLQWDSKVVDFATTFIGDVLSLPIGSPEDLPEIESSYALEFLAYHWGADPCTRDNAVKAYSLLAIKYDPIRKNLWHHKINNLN
# Sequence of UniProt O08914 (whole entry, looked up): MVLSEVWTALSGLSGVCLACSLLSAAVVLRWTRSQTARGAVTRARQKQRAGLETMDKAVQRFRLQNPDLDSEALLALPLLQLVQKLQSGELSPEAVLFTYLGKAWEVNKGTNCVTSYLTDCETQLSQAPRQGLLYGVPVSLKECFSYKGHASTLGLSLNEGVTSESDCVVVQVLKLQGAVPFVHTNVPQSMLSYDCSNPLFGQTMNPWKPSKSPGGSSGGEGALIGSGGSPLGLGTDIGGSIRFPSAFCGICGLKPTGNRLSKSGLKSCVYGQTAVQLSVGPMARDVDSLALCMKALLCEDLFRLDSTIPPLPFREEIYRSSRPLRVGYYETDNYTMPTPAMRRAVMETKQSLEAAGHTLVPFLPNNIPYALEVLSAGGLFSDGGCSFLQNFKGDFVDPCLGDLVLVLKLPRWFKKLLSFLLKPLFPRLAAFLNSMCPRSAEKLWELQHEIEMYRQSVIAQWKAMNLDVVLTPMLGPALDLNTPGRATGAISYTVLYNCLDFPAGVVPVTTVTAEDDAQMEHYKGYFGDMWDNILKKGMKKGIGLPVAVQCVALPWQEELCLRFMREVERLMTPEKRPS
# Sequence of UniProt P06276 (whole entry, looked up): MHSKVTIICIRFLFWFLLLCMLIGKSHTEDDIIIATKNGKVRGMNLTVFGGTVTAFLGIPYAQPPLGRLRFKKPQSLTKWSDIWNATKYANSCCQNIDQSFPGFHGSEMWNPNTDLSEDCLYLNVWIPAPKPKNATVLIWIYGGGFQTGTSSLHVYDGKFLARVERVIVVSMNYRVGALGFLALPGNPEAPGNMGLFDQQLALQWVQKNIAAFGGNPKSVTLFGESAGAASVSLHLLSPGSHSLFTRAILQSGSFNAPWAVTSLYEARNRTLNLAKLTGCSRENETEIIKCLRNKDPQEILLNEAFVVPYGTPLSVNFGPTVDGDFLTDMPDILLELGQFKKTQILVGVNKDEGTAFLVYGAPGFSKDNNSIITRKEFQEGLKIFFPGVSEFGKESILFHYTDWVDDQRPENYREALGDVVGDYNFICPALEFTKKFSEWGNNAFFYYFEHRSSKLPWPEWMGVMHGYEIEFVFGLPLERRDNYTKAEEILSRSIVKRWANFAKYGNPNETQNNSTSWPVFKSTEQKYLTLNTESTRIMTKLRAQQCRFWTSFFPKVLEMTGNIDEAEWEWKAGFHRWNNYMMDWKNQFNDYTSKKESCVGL
# Sequence of UniProt Q9UNQ0 (whole entry, looked up): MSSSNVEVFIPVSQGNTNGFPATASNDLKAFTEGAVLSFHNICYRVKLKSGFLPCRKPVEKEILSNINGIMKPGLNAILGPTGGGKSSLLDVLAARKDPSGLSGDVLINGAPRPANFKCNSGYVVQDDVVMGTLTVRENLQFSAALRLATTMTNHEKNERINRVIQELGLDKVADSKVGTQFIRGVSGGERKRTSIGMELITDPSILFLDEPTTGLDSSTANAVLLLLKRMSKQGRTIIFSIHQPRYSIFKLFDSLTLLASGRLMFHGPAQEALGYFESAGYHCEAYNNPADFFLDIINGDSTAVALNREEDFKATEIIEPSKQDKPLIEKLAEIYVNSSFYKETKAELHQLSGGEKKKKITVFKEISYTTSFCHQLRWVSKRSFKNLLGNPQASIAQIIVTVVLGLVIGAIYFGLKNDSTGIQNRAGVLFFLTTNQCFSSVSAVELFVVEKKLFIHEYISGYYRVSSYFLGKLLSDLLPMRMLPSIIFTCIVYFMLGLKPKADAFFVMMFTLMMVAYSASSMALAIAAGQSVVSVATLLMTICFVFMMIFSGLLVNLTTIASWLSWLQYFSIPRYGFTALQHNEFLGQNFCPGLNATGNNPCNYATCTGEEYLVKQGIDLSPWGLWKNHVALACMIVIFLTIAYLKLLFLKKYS
# Sequence of UniProt Q63008 (whole entry, looked up): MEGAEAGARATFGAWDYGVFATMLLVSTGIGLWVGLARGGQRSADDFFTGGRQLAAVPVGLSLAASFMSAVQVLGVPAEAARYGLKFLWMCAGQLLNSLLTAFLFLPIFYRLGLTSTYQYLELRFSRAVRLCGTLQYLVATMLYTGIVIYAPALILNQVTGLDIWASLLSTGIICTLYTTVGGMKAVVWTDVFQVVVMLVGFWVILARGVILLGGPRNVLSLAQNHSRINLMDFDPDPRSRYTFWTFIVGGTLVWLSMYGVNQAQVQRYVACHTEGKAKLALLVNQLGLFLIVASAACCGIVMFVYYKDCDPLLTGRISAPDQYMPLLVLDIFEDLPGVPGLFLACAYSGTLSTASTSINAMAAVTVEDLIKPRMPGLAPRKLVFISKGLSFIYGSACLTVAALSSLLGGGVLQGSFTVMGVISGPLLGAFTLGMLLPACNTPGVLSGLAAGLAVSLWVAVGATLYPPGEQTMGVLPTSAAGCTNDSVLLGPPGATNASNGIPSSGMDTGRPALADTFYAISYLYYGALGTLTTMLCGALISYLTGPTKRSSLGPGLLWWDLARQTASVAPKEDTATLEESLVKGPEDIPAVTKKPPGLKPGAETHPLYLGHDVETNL
# Sequence of UniProt Q60492 (whole entry, looked up): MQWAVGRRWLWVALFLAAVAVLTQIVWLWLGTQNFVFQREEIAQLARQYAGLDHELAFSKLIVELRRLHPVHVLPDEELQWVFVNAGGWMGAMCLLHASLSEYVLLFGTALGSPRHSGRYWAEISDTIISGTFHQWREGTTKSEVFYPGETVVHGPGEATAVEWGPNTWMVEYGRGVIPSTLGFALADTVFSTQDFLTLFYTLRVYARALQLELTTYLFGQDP
# Sequence of UniProt Q07817 (whole entry, unmodified, looked up): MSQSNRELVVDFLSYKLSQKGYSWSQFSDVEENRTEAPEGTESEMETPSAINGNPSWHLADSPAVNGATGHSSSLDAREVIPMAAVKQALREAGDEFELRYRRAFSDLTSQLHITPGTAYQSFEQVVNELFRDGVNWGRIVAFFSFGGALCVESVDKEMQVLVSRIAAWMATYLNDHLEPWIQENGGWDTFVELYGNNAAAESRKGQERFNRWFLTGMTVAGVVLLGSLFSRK
SMILES,target,test,system,setting,IC50 [nM]
O=C(O)CCCCCCCCCCCNC(=O)NC12CC3CC(CC(C3)C1)C2,"Soluble epoxide hydrolase (Gallus gallus, UniProt Q45QT1)",,,,~10
C[C@@H]1O[C@@H](Oc2c(-c3ccc(O)c(O)c3)oc3cc(O)cc(O)c3c2=O)[C@H](O)[C@H](O)[C@H]1O,atpG/atpA/atpD,"ATP synthase activity, inhibitor",,,~20000
CCCNC(=O)[C@H](CC(C)C)NC(=O)[C@H](Cc1cnc[nH]1)NC(=O)CNC(=O)[C@@H](NC(=O)[C@H](C)NC(=O)[C@H](Cc1c[nH]c2ccccc12)NC(=O)[C@H](CCC(N)=O)NC(=O)[C@H](N)Cc1ccccc1)C(C)C,Gastrin-releasing peptide receptor,binding,,literature species comparison,6.4 ± 0.8
CC(C)c1c(Cc2ccccc2)n(COCc2ccccc2)c(=O)n(O)c1=O,"Gag-Pol polyprotein, integrase (gag-pol, Human immunodeficiency virus type 1 group M subtype B, UniProt P04585)","strand transfer, inhibitor, gel",HIV-1,,21000 ± 2000
CCCCCCCCCCCCCC/C(C(=O)O)=C(\C)C(=O)O,"Farnesyltransferase (Saccharomyces cerevisiae S288c, UniProt P22007+P29703)",,,,17000
O=C(Oc1ccc([N+](=O)[O-])cc1)N1CCC(C(O)(c2ccc3c(c2)OCO3)c2ccc3c(c2)OCO3)CC1,"Monoglyceride lipase (Rattus norvegicus, UniProt Q8R431)","2-OG hydrolysis, inhibitor",rat cerebellum,60 min preincubation,5.8
O=C(Oc1ccc([N+](=O)[O-])cc1)N1CCC(C(O)(c2ccc3c(c2)OCO3)c2ccc3c(c2)OCO3)CC1,"Faah (Mus musculus, UniProt O08914)",,,previously reported,4690
NCc1c[nH]c(=S)n1[C@H]1CCc2c(F)cc(F)cc2C1,dopamine β-hydroxylase,inhibitor,,,9
O=C(/C=C/c1ccc(O)c(O)c1)O[C@@H]1C[C@](O)(C(=O)O)C[C@@H](O)[C@H]1O,HIV integrase,"enzyme activity, inhibitor",,,> 50000
Oc1ccc(/C=C/c2cc(O)cc(O)c2)cc1,atpG/atpA/atpD,"ATP synthase activity, inhibitor",,,~94000
Cc1cc2c(C(C)C)c(O)c(O)c(C=O)c2c(O)c1-c1c(C)cc2c(C(C)C)c(O)c(O)c(C=O)c2c1O,"Bcl-2-like protein 1, transmembrane domain deleted (BCL2L1, Homo sapiens, UniProt Q07817)",fluorescence polarization,,,540
Cc1oncc1C(=O)Nc1ccc(C(F)(F)F)cc1,"ABCG2 (Homo sapiens, UniProt Q9UNQ0)",transport,,,4530
COC(=O)[C@H](CC(C)C)NC(=O)[C@H](Cc1cnc[nH]1)NC(=O)CNC(=O)[C@@H](NC(=O)[C@H](C)NC(=O)[C@H](Cc1c[nH]c2ccccc12)NC(=O)[C@H](CCC(N)=O)NC(=O)[C@H](N)Cc1ccccc1)C(C)C,Gastrin-releasing peptide receptor,binding,,literature species comparison,10.3 ± 1.4
O=C(O)C1=CC(=C(c2ccc(O)c(C(=O)O)c2)c2ccc(O)c(C(=O)O)c2)C=CC1=O,HCV NS3 helicase,"DNA unwinding, inhibitor",,,600 ± 100
Oc1cc(O)cc(/C=C/c2ccc(O)c(O)c2)c1,atpG/atpA/atpD,"ATP synthase activity, inhibitor",,,~14000
CCCNC(=O)[C@H](CC(C)C)NC(=O)[C@H](Cc1c[nH]cn1)NC(=O)CNC(=O)[C@@H](NC(=O)[C@H](C)NC(=O)[C@H](Cc1c[nH]c2ccccc12)NC(=O)[C@H](CCC(N)=O)NC(=O)[C@H](N)Cc1ccc(O)cc1)C(C)C,Gastrin-releasing peptide receptor,binding,,literature species comparison,14 ± 1
C[n+]1cc2c3c(ccc2c2ccc4cc5c(cc4c21)OCO5)OCO3,glucocorticoid receptor,"binding, competitor",,together with: dexamethasone 10 nM,~10000
COC1CCC(C(=O)c2ccc3nc4c(cc3c2)CCCO4)CC1 (stereo not drawn),mGlu1 receptor,"agonist-induced PI hydrolysis, antagonist",,,1.7
O=C(/C=C/c1ccc(O)c(O)c1)O[C@@H](C(=O)O)[C@@H](OC(=O)/C=C/c1ccc(O)c(O)c1)C(=O)O,HIV integrase,"enzyme activity, inhibitor",,,60
O=C(O)CC[C@H]1CC[C@@](c2cc(F)ccc2F)(S(=O)(=O)c2ccc(Cl)cc2)CC1,gamma-secretase,"substrate cleavage, inhibitor",,,50
CN1CC[C@]2(C)c3cc(OC(=O)Nc4ccccc4)ccc3N(C)[C@H]12,"Cholinesterase (BCHE, Homo sapiens, UniProt P06276)","enzyme activity, inhibitor",,,23500 ± 300
O=C(CCNNC(=O)c1ccncc1)NCc1ccccc1,monoamine oxidase (rat),,brain homogenate,,2600 to 13000
COc1ccc(C(=O)NN=Cc2ccc(O)c3ncccc23)cc1,"Chaperonin GroEL, with GroES (groEL, Escherichia coli, UniProt P0A6F5)","GroEL/ES-mediated refolding, inhibitor",,together with: denatured rhodanese,18000
CCCCCCCC(=O)SCC/C=C/[C@@H]1CC(=O)NCc2nc(cs2)C2=N[C@@](C)(CS2)C(=O)N[C@@H](C(C)C)C(=O)O1,"HDAC1 (Homo sapiens, UniProt Q13547)",enzyme activity,,,40
O=C(CCN1CCCCC1)c1ccc(-c2ccc(C(=O)CCN3CCCCC3)cc2)cc1,histamine H3 receptor,inhibitor,,,308 ± 3
CCCCCCC[C@@H]1CC[C@@H](CCCC)N1,"SIGMAR1 (Cavia porcellus, UniProt Q60492)",binding,,together with: [3H](+)-pentazocine,2
CCOc1cc(Oc2ccc(C(F)(F)F)cc2Cl)ccc1[N+](=O)[O-],"Sodium/iodide cotransporter (Rattus norvegicus, UniProt Q63008)","iodide uptake, inhibitor",FRTL-5,,2000

# Excerpt of the above:
SMILES,target,test,system,setting,IC50 [nM]
C[n+]1cc2c3c(ccc2c2ccc4cc5c(cc4c21)OCO5)OCO3,glucocorticoid receptor,"binding, competitor",,together with: dexamethasone 10 nM,~10000
COC1CCC(C(=O)c2ccc3nc4c(cc3c2)CCCO4)CC1 (stereo not drawn),mGlu1 receptor,"agonist-induced PI hydrolysis, antagonist",,,1.7
O=C(/C=C/c1ccc(O)c(O)c1)O[C@@H](C(=O)O)[C@@H](OC(=O)/C=C/c1ccc(O)c(O)c1)C(=O)O,HIV integrase,"enzyme activity, inhibitor",,,60
O=C(O)CC[C@H]1CC[C@@](c2cc(F)ccc2F)(S(=O)(=O)c2ccc(Cl)cc2)CC1,gamma-secretase,"substrate cleavage, inhibitor",,,50
